Published values collected from several papers.
Lines come from different studies, so protocols differ. “And” joins repeats or separate records; there may be more than shown. ± gives the spread as reported.

For COc1cc2c(cc1OC)C1CC(=O)C(CC(C)C)CN1CC2 (stereo not shown), the [18F]-DOPA retention was 12.1% (mouse pheochromocytoma MPC cells; 10 µM, 30 min preincubation, together with: 0.029 MBq/mL [18F]-DOPA 120 min; baseline: control).
The GI50 of O=C(CCc1cc(C(=O)NO)no1)Nc1nc(-c2ccccc2)cs1 is reported as 0.7 µM (L3.6pl; cell growth or viability, MTS; 72 h).
NCC[C@H](NC(=O)[C@H](Cc1ccc(F)c(F)c1)NC(=O)Nc1ccc2c(CN3CCCC3)cn(Cc3c(Cl)cccc3Cl)c2c1)C(=O)NCc1ccccc1 — result for “shift of thrombin concentration-response”: 2 fold (human platelets; platelet aggregation, antagonist; 3 µM, together with: thrombin; baseline: vehicle).
The inhibition of COc1ccc2c(c1)c(CC(=O)O)c(C)n2C(=O)c1ccc(Cl)cc1 is reported as 93.5% (human erythrocytes; hypotonicity-induced hemolysis; 400 µg/mL, 1 h).
CNC(=O)c1ccc(-c2cnc3cnc(-c4ccccc4)cn23)cc1 — result for “lagging chromosomes and bridges”: > 2 fold and 2.4 fold (U1242; 3 µM, 48 h, together with: radiation 2 Gy; baseline: radiation alone).
Under “inhibition of gene upregulation”, Cn1cc(Nc2nccc(-c3ccc4c(c3)CN(C3COC3)CC[C@H]4NC(=O)c3cn(C(C)(C)C)nn3)n2)cn1 is recorded as 98% (human B cells; refers to: stimulation-induced genes; 100 nM, 64 h, together with: anti-IgM).
For COc1cc(O)c2c(=O)c(O)c(-c3ccc(O)c(O)c3)oc2c1, the Hill slope was -1.6 ± 0.4 (BV-2; NO release, inhibitor, Griess; 24 h, together with: 10 µg/mL LPS + 10 µM MLA).
Under “mean growth inhibition”, CCCCCCCCCCCCCCCCCCOc1ccccc1CC(=O)OCC[N+](C)(C)C is recorded as 77.7% (nine NSCLC cell lines; 10 µM).
CNCCCN1c2ccccc2CCc2ccccc21 gave a [18F]-dopamine uptake of 14.3% (mouse pheochromocytoma MPC cells; 1 µM, 30 min preincubation, together with: 0.024 MBq/mL [18F]-dopamine 10 min; baseline: untreated).
NC1=NC(=S)NC12CCCCC2 has an inhibition of 88.4% (human erythrocytes; hypotonicity-induced hemolysis; 100 µg/mL, 1 h).
`AIAEGDSHVLKEGAY / MEIFDVQGHVFGGKIFRVVDLGSHNVA (oligomer)` — result for “T cell association”: 66 to 67% (human T cells; flow cytometry, ThT label; peptide; 15 µM, 1 h).
Under “fluorescent area per cell”, CC1(C)C(/C=C/C=C/C=C/C=C2\N(CCCCS(=O)(=O)O)c3ccc4ccccc4c3C2(C)C)=[N+](CCCCS(=O)(=O)[O-])c2ccc3ccccc3c21 is recorded as 2.06 ± 0.46% (U87MG-luc; confocal microscopy; 20 µM, 4 h).
For `WIFPWIQL`, viability read “no effect” (4T1.2; WST-1; peptide; concentration not given, 20 h).
The inhibition of O=C1CCC(=O)C2(CCCCC2)N1 is reported as 84.7% (human erythrocytes; hypotonicity-induced hemolysis; 1000 µg/mL, 1 h).
CC(C)(N)C(=O)O gave a Kd of 9200 µM (Ehrlich ascites cells, mouse; Na+ binding to substrate-carrier; equilibrium model K4).
CC[C@H](Nc1ncnc2[nH]cnc12)c1nc2cccc(F)c2c(=O)n1-c1ccccc1 — result for “minimum effective concentration”: at least 300 nM (primary CLL cells; AKT phosphorylation, inhibitor; 30 min, together with: anti-IgM; to unstimulated level).
COC(=O)[C@H]1[C@H]2C[C@@H]3c4[nH]c5cc(OC)ccc5c4CCN3C[C@H]2C[C@@H](OC(=O)c2cc(OC)c(OC)c(OC)c2)[C@@H]1OC has a [18F]-DOPA retention of 11.8% (mouse pheochromocytoma MPC cells; 10 µM, 30 min preincubation, together with: 0.029 MBq/mL [18F]-DOPA 120 min; baseline: control).
For Cc1cc(-c2ccccc2)c2c(n1)C1(CCCCC1)NC2=O, the inhibition was 79.4% (human erythrocytes; hypotonicity-induced hemolysis; 400 µg/mL, 1 h).
O=C(N/N=C/c1ccccc1O)c1ccncc1: “labile iron pool concentration” 2.93 ± 0.44 µM (human erythrocytes; iron chelator, calcein dequenching; 100 µM).
`SIIVFEKL`: “IFN-gamma single producers” 0.2% (OT-I CD8+ T cells; peptide; primed 5 d, OVA257 100 ng/mL restimulation, together with: no TGF-beta1).
`ANKHYF` has an adherent cells of 17% (rabbit smooth muscle cells; peptide; 2 µg coated per well, 30 to 60 min; baseline: thrombospondin-coated wells).
`peginesatide` — result for “dose equivalent to rHu-EPO”: 2.1 nM (UT-7/Epo; cell proliferation, agonist; 2.5 d, matched to rHu-EPO 1.5 U/mL).
COc1cc(-c2ccc(-c3ccc(C(=N)N)nc3)s2)cc(OC)c1OC gave a mRNA level of 0.27 ± 0.02 (HepG2; real-time PCR, refers to: topoisomerase II; 0.1 µM, 8 h, unit not given; baseline: untreated).
CCn1c2ccccc2c2cc(C3CC(c4cc5cccc(OC)c5oc4=O)=NN3c3cccc(Cl)c3)ccc21 (stereo not shown) — result for “cells in G0/G1 phase”: 61.2% (NCI-H520; propidium iodide staining; IC50, 24 h).
COc1cccc2c1C(=O)c1c(O)c3c(c(O)c1C2=O)C[C@@](O)(C(=O)CO)C[C@@H]3O[C@H]1C[C@H](N)[C@H](O)[C@H](C)O1 gave a mRNA level of 0.47 ± 0.08 (HepG2; real-time PCR, refers to: topoisomerase II; 0.1 µM, 8 h, unit not given; baseline: untreated).
For COc1cc(Cc2nnc3sc(-c4cc([N+](=O)[O-])ccc4[N+](=O)[O-])nn23)c(S(=O)(=O)N(C)C)cc1OC, the TGI was 27 ± 0.76 µM (MRC5 normal lung fibroblasts; MTT; 48 h).
`CSTSCG` has an adherent cells of 22% (rabbit smooth muscle cells; peptide; 2 µg coated per well, 30 to 60 min; baseline: thrombospondin-coated wells).
For `Ac-LRKLRKRLLRDWLKAFYDKVAEKLKEAF-NH2 (N-acetyl, C-amide)`, “Aβ42 uptake enhancement” read over 2 fold (THP-1 derived macrophages; peptide; concentration not given, 3 h, 37 °C, together with: 2 µg/mL Aβ42; baseline: without peptide).
`SIYNFEKL` — result for “double cytokine producers”: 21.1% (OT-I CD8+ T cells; refers to: IL-2, IFN-gamma, TNF-alpha; peptide; primed 5 d, OVA257 100 ng/mL restimulation, together with: no TGF-beta1).
`neuropeptide Y`: cAMP level “no effect” (rat sciatic nerve fibroblasts; radioimmunoassay; concentration not given, 2 min, together with: 200 µM IBMX).
The inhibition of O=C1NC2(CCCCC2)c2nc3c(c(-c4ccccc4)c21)CCCC3 is reported as 76.1% (human erythrocytes; hypotonicity-induced hemolysis; 100 µg/mL, 1 h).
Cc1[nH]c2ccccc2c1CCNCc1ccc(/C=C/C(=O)NO)cc1 has a protein level of over 10 fold (human iPSC-derived NPCs; western blot, refers to: TFEB; 0.5 µM, 24 h; baseline: vehicle).
For CNC(=O)c1cccc2cc(Oc3ccnc4cc(OCC5(N)CC5)c(OC)cc34)ccc12, “lowest effective concentration” read at least 100 nM (SNU-16; inhibitor, Western blot; 2 h, serum starved).
For CC(=O)[C@]1(O)Cc2c(O)c3c(c(O)c2[C@@H](O[C@H]2C[C@H](N)[C@H](O)[C@H](C)O2)C1)C(=O)c1ccccc1C3=O, “number of upregulated proteins” read 202 (hiPSCs; LC-MS/MS proteomics; concentration not given, 24 h, fold change above 1.5).
Under “time to comparable ERK dephosphorylation”, CCCC[C@H]1NC(=O)[C@H]([C@@H](C)O)NC(=O)[C@@H](C)NC(=O)[C@H](CCCNC(=N)N)NC(=O)[C@H](CCCNC(=N)N)NC(=O)[C@H](CCCNC(=N)N)NC(=O)[C@@H](Cc2ccc3ccccc3c2)NC(=O)[C@H](CCCNC(=N)N)NC(=O)[C@H](Cc2ccc(F)cc2)NC(=O)[C@H](Cc2c[nH]c3ccccc23)NC(=O)[C@H](CCC(N)=O)NC1=O is recorded as 20 min (H1299; immunoblot, refers to: phospho-ERK1/2; concentration not given).
For C[C@H](NC(=O)Cc1cc(F)cc(F)c1)C(=O)N[C@H](C(=O)OC(C)(C)C)c1ccccc1, mRNA level read “decreased” (HPB-ALL; qPCR, refers to: HES1; 30 µM, 16 h, 37 °C; baseline: untreated).
Under proliferation, CCOc1cc(C(=O)N2CCC(N3CCN(C)CC3)CC2)ccc1Nc1ncc2c(n1)N(C1CCCC1)c1ccccc1C(=O)N2C is recorded as “inhibited” (MM1.S; 500 nM and 1 µM, 3 days, together with: IL-6 5 nM).
Under “mean growth inhibition”, CCCCCCCCCCCCCCCCCCOCC(COP(=O)([O-])OCC[N+](C)(C)C)OC (stereo not shown) is recorded as 28% (nine NSCLC cell lines; 10 µM).
With O=C1NC2(CCCCC2)c2[nH]c(=S)nc(-c3ccccc3)c21 the inhibition was 94% (human erythrocytes; hypotonicity-induced hemolysis; 1000 µg/mL, 1 h).
c1ccc2c(-c3cnn4cc(-c5ccc(N6CCNCC6)cc5)cnc34)ccnc2c1 — result for Smad1/5/8 phosphorylation: “inhibited” (mouse PASMCs expressing ALK2 Q207D; immunoblot; 100 nM).

For quick reference, copied from above:
NCC[C@H](NC(=O)[C@H](Cc1ccc(F)c(F)c1)NC(=O)Nc1ccc2c(CN3CCCC3)cn(Cc3c(Cl)cccc3Cl)c2c1)C(=O)NCc1ccccc1 — result for “shift of thrombin concentration-response”: 2 fold (human platelets; platelet aggregation, antagonist; 3 µM, together with: thrombin; baseline: vehicle).
The inhibition of COc1ccc2c(c1)c(CC(=O)O)c(C)n2C(=O)c1ccc(Cl)cc1 is reported as 93.5% (human erythrocytes; hypotonicity-induced hemolysis; 400 µg/mL, 1 h).
